Assay results gathered from unrelated publications.
Parts stem from different laboratories: compare values within a part only.

Study 1
Target: Histone acetyltransferase KAT6A, winged helix 1, GST fusion (KAT6A, Homo sapiens, UniProt Q92794, residues 1-85)
Method: protein binding microarray
Form: double-stranded DNA, one strand shown
Medium: in vitro
Concentration: not given
Setting: 8-mer, flanks averaged, mean of 2 arrays, mostly near background
Relative to: not given
Direction: higher = stronger binding
Residues (chain): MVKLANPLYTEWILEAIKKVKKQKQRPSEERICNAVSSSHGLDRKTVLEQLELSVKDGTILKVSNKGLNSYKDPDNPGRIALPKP
`CATTTTGG` has an E-score of -0.108.
`AAAAGGCC` has an E-score of 0.0671.
With `ACGGTGCA` the E-score was -0.01.
The E-score of `AGCAAGGA` is reported as -0.219.
`GCGCTGTA` gave an E-score of 0.329.
The E-score of `CGTCGCCC` is reported as 0.295.
`CTAGGCAG` has an E-score of -0.151.
`AATCACGA` gave an E-score of -0.109.
The E-score of `CTAGTCGC` is reported as 0.049.
`AGATCATG` has an E-score of -0.266.
With `CCGCTGGC` the E-score was 0.264.
The E-score of `GCAGCTGA` is reported as 0.0215.
The E-score of `AATTCAGG` is reported as -0.0711.
The E-score of `ACCTGGAG` is reported as -0.142.
The E-score of `ATGTTATC` is reported as -0.0796.
`CGCGGGGA` gave an E-score of 0.378.
The E-score of `ACCCTCTG` is reported as -0.178.
With `GCAATCTA` the E-score was -0.106.
For `ATATCGTA`, the E-score was -0.0687.
`AGTCAGGG` gave an E-score of -0.112.
With `AGGGGAAC` the E-score was -0.186.
With `GCTACTGA` the E-score was -0.109.
`CATACGGG` has an E-score of 0.359.
For `ACTAGGAG`, the E-score was -0.141.
For `CCCTGGAC`, the E-score was -0.173.

Study 2
Target: Interferon regulatory factor 5, full length, phosphomimetic (IRF5, Homo sapiens, UniProt Q13568-2, residues 1-514, K96S/S451D/S453D/S456D/S462D)
Method: protein-binding microarray
Form: double-stranded DNA, one strand shown
Medium: in vitro
Concentration: 250 nM
Setting: 60-bp whole probe
With: salmon DNA 0.4 mg/ml
Relative to: random background probes
Direction: higher = stronger binding
Shared flanks, not repeated: GCCTAGCAC … GTCTTGATTCGCTTGACGCTGCTG
For `TTAGGGTTCGGTTTCGGTTAGTGCTAG`, the log fluorescence was 8.69 z-score.
`TTTCTTTTCATTACTGCATTGTGCTAG` has a log fluorescence of 6.23 z-score.
With `TTAGGACTGAGTTTCGGTTAGTGCTAG` the log fluorescence was 9.22 z-score.
With `TTCAGTTTCACTGCTGCCCTGTGCTAG` the log fluorescence was 5.48 z-score.
With `TTAGGTATCGACTATCGGATAGTGCTA` the log fluorescence was 5.21 z-score.
For `CCGGGGGGCACAGGGTGAGGGTGCTAG`, the log fluorescence was 1.69 z-score.
With `GACAAACTGAGTATCGAGACGTGCTAG` the log fluorescence was 2.11 z-score.
`TCACCATTATATTTTAAACTGTGCTAG` gave a log fluorescence of 0.692 z-score.
For `GACGGTACCGGTATCGGGACGTGCTAG`, the log fluorescence was 0.983 z-score.
`TCCTCTTTACTGCTCCACACGTGCTAG` gave a log fluorescence of 0.16 z-score.
With `TTAAAACTGGGGACTGGATTAGTGCTA` the log fluorescence was -0.41 z-score.
`GACGAACTGAGTCTCGAGTCGTGCTAG` gave a log fluorescence of 0.124 z-score.
For `TTAAGTTTCGACTTTCGGTTAGTGCTA`, the log fluorescence was 11.3 z-score.
`TTCGGACTGCTTCTCCTTTAGTGCTAG` gave a log fluorescence of -0.168 z-score.
For `GACCATATCAGTATCGAGACGTGCTAG`, the log fluorescence was 2.68 z-score.
The log fluorescence of `GACGGTTTCCTTATCCTGAAGTGCTAG` is reported as 0.745 z-score.

Study 3
Target: RING finger protein unkempt homolog, zinc fingers 1-6, GST-SBP tag (UNK, Homo sapiens, UniProt Q9C0B0, residues 30-357)
UniProt Q9C0B0, sequence (30-357, looked up): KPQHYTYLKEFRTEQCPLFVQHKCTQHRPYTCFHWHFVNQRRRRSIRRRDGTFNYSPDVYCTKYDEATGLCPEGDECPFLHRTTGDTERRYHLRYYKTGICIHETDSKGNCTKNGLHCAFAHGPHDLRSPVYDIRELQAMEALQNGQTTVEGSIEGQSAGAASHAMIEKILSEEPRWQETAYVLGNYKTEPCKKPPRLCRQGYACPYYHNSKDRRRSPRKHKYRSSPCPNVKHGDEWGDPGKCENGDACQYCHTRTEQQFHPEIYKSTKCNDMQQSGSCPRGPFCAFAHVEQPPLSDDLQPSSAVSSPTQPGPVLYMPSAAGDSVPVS
Method: RNA Bind-n-Seq
Form: RNA
Medium: in vitro
Concentration: not given
Setting: RNA with constant flanks, human and mouse sites, ends assumed
Relative to: input RNA pool
Direction: higher = stronger binding
`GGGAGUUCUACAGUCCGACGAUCAUGUGAAUAAAAUGUACAAAUUUGUUGUGUUUUUUUAUGUUCUGAGGCUGACUUCUAGGUCUUAGAUUAAUUUUUUAGGAAGGCCUUGCAUGCCAUCAAAAGUACAUUUGGCUGUGGUUUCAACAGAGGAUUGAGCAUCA` has a bound/input enrichment of 4.79 ratio.
With `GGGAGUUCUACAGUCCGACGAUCGCAGAUUACAAUGGCAGAUUGGCGGCAGAAAUAGAUGAUAGAAAGCAACUCACUCGAAUGUUAGCAGAUUUUCUUCGUUGUCAAAAGGAAGCCCUUGCAGAGAAAGAGCAUAAAUUGGAACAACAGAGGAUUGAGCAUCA` the bound/input enrichment was 1.27 ratio.
The bound/input enrichment of `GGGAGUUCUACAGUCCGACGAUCAGCACAGAGAGCACAAGACAGAGAUCCUUGUCAUAAUGAGACAGAGAAAGUAACCAAUUUUGGGUAUAAGAAGUGUCAAGCCGGGCAGUGGUAGUGCACGCCUUUAAUCCCAGCACUCGGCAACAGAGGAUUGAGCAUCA` is reported as 0.219 ratio.
For `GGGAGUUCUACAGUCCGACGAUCUCACCACAGAGCAUUUUAGAUGAUGUUGCCAUGGUACUAGAUGAAGAAGCAGAAGUUUUUAUAGUCAAAAUGUGGAGAUUAUUGAUAUAUGAAACAGAAGCCAAGAAAAUUGGCCUUGUGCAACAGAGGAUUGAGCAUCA`, the bound/input enrichment was 0.595 ratio.
`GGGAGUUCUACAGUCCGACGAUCGCUCUUGCAUAUGGAAUCUAUAAGCAGGAUCUUCCUGCCUUAGAAGAGAAACCAAGAAAUGUAGUUUUUGUAGACAUGGGCCACUCUGCUUAUCAAGUUUCUGUAUGUGCAUUUAAUAGACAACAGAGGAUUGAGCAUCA` gave a bound/input enrichment of 0.36 ratio.
For `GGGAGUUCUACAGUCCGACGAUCUCUCUUGCUACUUGCCAGUUAUCUGAGCCAUUAUUGUGGUUCAUUUUGAGAGUAUUGGAUACUAGUGAUGCCUUGAAAGCAUUUCAUGAUAUGGGUGGUGUUCAGCUCAUAUGCAAUAAUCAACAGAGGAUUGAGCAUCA`, the bound/input enrichment was 0.297 ratio.
With `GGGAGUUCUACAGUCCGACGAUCACUAGCACAUUUUCCGAGUACACAGUUGUGGCUGACAUCUCUGUUGCUAAAAUCGAUCCUUCGGCCCCUUUGGAUAAAGUCUGCCUUCUCGGCUGUGGUAUUUCAACUGGCUACGGGGCUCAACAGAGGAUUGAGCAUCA` the bound/input enrichment was 0.829 ratio.
For `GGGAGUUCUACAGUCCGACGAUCUGCACAGACCUCCUGAAUAAGGCCAACACGUAUGCAGAACAACAUUUUGCAGAUGUCGUACUUAGUGAAGAGUUUCUUAACCUCGGCAUCGAGCAGGUGUGCAGCUUAAUCUCCAGUGAUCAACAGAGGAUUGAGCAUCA`, the bound/input enrichment was 0.101 ratio.
`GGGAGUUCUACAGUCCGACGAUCGUUUUUAAUGUUGAAGUUGUUGCUGUUUCGUCUAUCCAUACACAAGAUCCUUAUCUUGACAAAUUUUUUGCUCUGGUCAAUGCUCUGGAUGAACACCUGUUCCCAGUCCGAAUUGGGGACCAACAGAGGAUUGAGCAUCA` gave a bound/input enrichment of 0.287 ratio.
The bound/input enrichment of `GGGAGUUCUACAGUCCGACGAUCUAUCACAUACACAUAAAAAAGGGAAGAAAUUCGGCAGUGAAUGAAGAUUCCUCUGCAUUUUAGCAUUGCUUUUUCUACUGUAGUUGGCUUUUGAAUGAGGAUGACAAUGGAAGAGAUGAACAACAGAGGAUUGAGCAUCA` is reported as 0.47 ratio.
With `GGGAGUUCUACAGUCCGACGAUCACUAAAUAGCAGGCACUUGAAAAUGGGUGUGUUUUCUUCCAUUGUCGUCUUUUCUAUUGAGGGUUGGGAUUUGGGUGGGAGAGGAAAGCAAAUUUUAUUUUCUUGACUAUAAAUUUGUUACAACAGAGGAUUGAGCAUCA` the bound/input enrichment was 0.796 ratio.

Study 4
Target: RNA binding protein fox-1 homolog 2, RRM domain, GST-SBP tag (RBFOX2, Homo sapiens, UniProt O43251-10, residues 100-194)
Method: RNA Bind-n-Seq
Form: RNA
Medium: in vitro
Concentration: 365 nM
Setting: natural RNA segment, single round, ends assumed
Relative to: no-protein control
Direction: higher = stronger binding
Residues (chain): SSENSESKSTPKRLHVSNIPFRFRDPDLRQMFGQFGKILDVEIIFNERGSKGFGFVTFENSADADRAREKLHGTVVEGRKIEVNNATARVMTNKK
`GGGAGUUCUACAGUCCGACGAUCGAUGCAUUGUCCUGCUAACCCACAAACCUGUUUGGAAAUAAACAUGGAAGAAUAUCUGGCAGGCUUACUUUUAGAAGACGACAAAUCGGUAAGGCUUAUUCAUGGUUCAUUGGAAUUCUCGGGUGCCAA` — result for “RBNS enrichment (R)”: 0.34.
`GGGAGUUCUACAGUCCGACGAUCUAAAUGUGGGCUCCCUGUUAAGUGGGGCUCAUGGAUACGAGGCCUGAGGAAGUGUGGCUUGCUAGUCUGUUACGUUAACAUGCUUUUCUAAAAUUGCUUCACGUGUUAAUUGGAAUUCUCGGGUGCCAA`: “RBNS enrichment (R)” 0.49.
`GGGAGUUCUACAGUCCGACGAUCGCAAGCGUGCAGAAACUAACUCCUCUCUCACAAAGGCUUAUAAAAUUGGUGUGUCCUAUGGAAAUGGAAAGAAAGAUAGAUAAGACAUUUCUGUCAAUUUUCAAGAACUUUGGAAUUCUCGGGUGCCAA` — result for “RBNS enrichment (R)”: 0.759.
`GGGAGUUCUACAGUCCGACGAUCGGGAAACAUUUUCCUAAGAUGCCCAUGAGAACAGACCAAGAUGUGUACAGCACUAUGAGCAUUAAAAAACCUUCCAGAAUCAAUAAUCCGUGGCAACAUAUCUCUGUAAAUGGAAUUCUCGGGUGCCAA` — result for “RBNS enrichment (R)”: 0.461.
Under “RBNS enrichment (R)”, `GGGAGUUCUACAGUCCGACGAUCCCUCAUUAACCAGUGCUUUACCAAACAGCAAACCAAGAGAUUGCUAAUUGCUGUUGAAAGCAAAAAUGCUAAUAUUAAAAGUCACAGUGUUCUUUAUAUACAAUAAUGGAUGGAAUUCUCGGGUGCCAA` is recorded as 0.499.
For `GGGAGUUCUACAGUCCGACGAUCUGUACCCCUAUUGUUAAAGAUUUGUGUCCUCUCAUUCCCUCUCUUCCUCUUGUAAGUGCCCUUCUAAUAAACUUUUCAUGGAAAAGCUCCUGUGCCAGGAGCUCAGUCUGUGGAAUUCUCGGGUGCCAA`, “RBNS enrichment (R)” read 0.64.
Under “RBNS enrichment (R)”, `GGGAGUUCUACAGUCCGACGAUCUAAAAUGAAUUGCUAUACCUUAGAAACAAUGUGACUCUAUUAAAAUAGUAUGGGGUAAGUACCCUACCUCUUAUAAAGGGCAAAAUGGAAAAGAAGUUUUCUUACAAACCUGGAAUUCUCGGGUGCCAA` is recorded as 1.73.
For `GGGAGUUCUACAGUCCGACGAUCUUCAACUCACCAGACACCUUUCUUUAGUUGAAAUAAACCAGCAUGACCUGGAGAUCAUGGUGACUGUAAGCUAAGUCUGUUUUCAUGCCAGAUUUCAGCCCCACCCAGAGUGGAAUUCUCGGGUGCCAA`, “RBNS enrichment (R)” read 0.94.
`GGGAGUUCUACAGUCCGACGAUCUGAGAGGCAUUGGGCUAAGAAAGAAAAGACUGUUGUAUAAUACCUUGUUCAAUGGUUGUAUUUAGUGAGCUCAUAGAGGUCCAUCAUAUCAUGACCGAGCUAGGUUGUGUUGGAAUUCUCGGGUGCCAA`: “RBNS enrichment (R)” 1.4.

For quick reference, copied from above (study 2):
With `TTAAAACTGGGGACTGGATTAGTGCTA` the log fluorescence was -0.41 z-score.
For `TTAAGTTTCGACTTTCGGTTAGTGCTA`, the log fluorescence was 11.3 z-score.
For `GACGGTACCGGTATCGGGACGTGCTAG`, the log fluorescence was 0.983 z-score.
`TTTCTTTTCATTACTGCATTGTGCTAG` has a log fluorescence of 6.23 z-score.
`TTCGGACTGCTTCTCCTTTAGTGCTAG` gave a log fluorescence of -0.168 z-score.
With `GACAAACTGAGTATCGAGACGTGCTAG` the log fluorescence was 2.11 z-score.
